Results collected from several papers.
Compare with care: the assays were run in different laboratories. “And” joins repeats or separate records; there may be more than shown. ± marks the error that the study gave. Converted amounts (≈) assume the structure as drawn.

Sequences of proteins named here, by UniProt entry; tags and fusion partners are left off.
UniProt P18089, whole entry: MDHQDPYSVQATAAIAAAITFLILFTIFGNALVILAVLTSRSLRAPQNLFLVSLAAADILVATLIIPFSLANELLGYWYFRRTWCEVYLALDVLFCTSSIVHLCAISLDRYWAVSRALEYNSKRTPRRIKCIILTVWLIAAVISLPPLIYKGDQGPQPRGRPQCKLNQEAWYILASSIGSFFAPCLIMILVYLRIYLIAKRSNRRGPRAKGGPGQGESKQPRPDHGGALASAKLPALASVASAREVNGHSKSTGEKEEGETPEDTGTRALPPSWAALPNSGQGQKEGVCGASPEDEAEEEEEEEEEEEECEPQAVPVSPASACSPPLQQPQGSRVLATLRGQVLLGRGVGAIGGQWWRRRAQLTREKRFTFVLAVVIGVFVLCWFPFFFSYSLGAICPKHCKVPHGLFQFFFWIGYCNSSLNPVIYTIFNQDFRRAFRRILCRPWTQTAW

SMILES	target or system	test	system	conditions	scale	quantity	value
Cc1ccc([C@H](CC(=O)O)NC(=O)Nc2c(O)c(C)cn(Cc3ccccc3Cl)c2=O)cc1	–	–	LAX7R xenograft, NSG mouse B-ALL model	dose not given, together with: vincristine, dexamethasone, L-asparaginase	–	mice with prolonged survival	~33%
Cn1c(COc2ccc3nc4ccc(=O)cc-4oc3c2)cnc1[N+](=O)[O-]	Mycobacterium tuberculosis	–	mc2 6206 bedaquiline-resistant MmpL5 regulator mutant	7 days	–	MIC90	> 256 µM
CCCN1CCN(c2ccc3c(c2)C2CC3CCN2C(=O)OCc2ccccc2)CC1 (stereo not shown)	ADRA2B (Homo sapiens, UniProt P18089)	binding, radioligand binding	–	–	–	Ki	1800 nM
CCc1nc(N)nc(N)c1C#CCc1cc(OC)cc(-c2ccc(C(=O)O)cc2)c1	Staphylococcus aureus	–	MRSA isolate HH 714	–	–	MIC	10 µg/mL (≈ 24.8 µM)
CCCCCCC1c2ccc(O)cc2Oc2cc(O)ccc21	Klebsiella pneumoniae	–	BARB 105	together with: NAB7061 4 µg/mL	–	MIC	> 74.6 µg/mL
CC(C)Oc1ccc2nc3ccc(=O)cc-3oc2c1	Mycobacterium tuberculosis	–	mc2 6206 PA-824-resistant ddn mutant	7 days	–	MIC90	69 µM (≈ 17.6 µg/mL)
C1CCC2(C1)OOCOCOOC1(CCCC1)OO2	U-937	cytotoxicity, 7-AAD flow cytometry	–	–	–	IC50	5930 ± 210 nM
CCC(C)C(CC)C(N)=O (stereo not shown)	–	maximal electroshock seizure	mouse	intraperitoneal	–	ED50	58 mg/kg
O=c1ccc2nc3ccc(OCc4ccc([N+](=O)[O-])s4)cc3oc-2c1	Mycobacterium tuberculosis	–	mc2 6206 bedaquiline-resistant MmpL5 regulator mutant	7 days	–	MIC90	> 256 µM
CC(C)Cc1nnc2c(C(=O)NC3c4ccccc4-c4ccccc43)cccn12	Escherichia coli	broth microdilution	MB5746 rpoZ deletion	–	relative to: mutant over wild type	MIC ratio	> 32
CC(=O)OCOc1ccc2nc3ccc(=O)cc-3oc2c1	Mycobacterium tuberculosis	–	mc2 6206 PA-824-resistant ddn mutant	7 days	–	MIC90	44 µM
O=C(C1CC1)N1CC2CC(C1)N2	–	limb use asymmetry test	rat, 6-OHDA lesion	dose not given, 60 min after L-dopa, 5 min test period, together with: L-dopa	–	contralateral forelimb use	51.3 ± 16.5%
CCN1CCN(Cc2ccc(NC(=O)c3ccc(C)c(/C=C/c4cnc5[nH]ccc5c4OC)c3)cc2C(F)(F)F)CC1	ETV6-FLT3 fusion	kinase-CDC37 interaction, inhibitor	human cells	5 µM	relative to: vehicle	log2 fold change	-2.16
c1ccc(Nc2cccc3ccccc23)cc1	Manis javanica OBP3 G68A	binding, fluorescence binding	–	together with: 1-NPN probe	–	Kd	580 ± 140 nM
CSc1nc(Cl)cc(Sc2nnc(-c3cc(C(F)(F)F)cc(C(F)(F)F)c3)[nH]2)n1	Klebsiella pneumoniae	–	BARB 105	together with: NAB7061 4 µg/mL	–	MIC	47.1 µg/mL (≈ 99.8 µM)
CCCOc1ccc2nc3ccc(=O)cc-3oc2c1	Mycobacterium tuberculosis	–	mc2 6206 bedaquiline-resistant MmpL5 regulator mutant	7 days	–	MIC90	19 µM (≈ 4.85 µg/mL)
CCN(CC)C(=O)Oc1ccc(C(=O)Nc2cccc3cc[nH]c23)cc1	rat GluN1/GluN2C diheteromeric NMDA receptor	inhibitor, two-electrode voltage clamp	Xenopus oocytes	–	–	IC50	5100 nM
CC#C/C(=N\OC[C@H]1COCCN1)c1ccc2ncnc(Nc3ccc(OCc4cccc(F)c4)c(Cl)c3)c2c1	–	tumour growth	MDA-MB-361, mouse orthotopic xenograft	oral, 28 days daily	–	ED50	23.3 mg/kg
CCC(C)C1NC(=O)/C(=C(/C)O)C1=O (stereo not shown)	plasma membrane H+-ATPase (Spinacia oleracea)	ATP hydrolysis, inhibitor	plasma membrane fraction	–	–	IC50	680 nM and 700 nM
NNC(=O)c1ccncc1	Mycobacterium bovis	–	BCG Tac^r9.1, thyA S125P missense	TA-C-resistant thyA mutant	–	MIC50	0.4 µM (≈ 0.0549 µg/mL)
Cc1ccc(S(=O)(=O)N(C)CC(=O)N(Cc2ccc(C3CCCCC3)cc2)c2ccc(C(=O)O)c(O)c2)cc1	STAT5 homodimer (mouse)	EMSA, measured: MGFe probe	NIH3T3/hEGFR nuclear extracts	up to 300 µM, together with: EGF	–	DNA-binding activity	no effect
CCOC(=O)OCOc1c(-c2ccc(Oc3ccc(OC(F)(F)F)cc3)cc2)c(C)nc2cc(OC)c(Cl)cc12	Plasmodium falciparum	cell growth, SYBR Green I	D6	72 h	–	IC50	6 nM
